Measured values from different studies.
Parts stem from different laboratories: compare values within a part only.

Set 1
Target: Alpha-2A adrenergic receptor (ADRA2A, Homo sapiens, UniProt P08913)
Chain of UniProt P08913 (whole entry, looked up): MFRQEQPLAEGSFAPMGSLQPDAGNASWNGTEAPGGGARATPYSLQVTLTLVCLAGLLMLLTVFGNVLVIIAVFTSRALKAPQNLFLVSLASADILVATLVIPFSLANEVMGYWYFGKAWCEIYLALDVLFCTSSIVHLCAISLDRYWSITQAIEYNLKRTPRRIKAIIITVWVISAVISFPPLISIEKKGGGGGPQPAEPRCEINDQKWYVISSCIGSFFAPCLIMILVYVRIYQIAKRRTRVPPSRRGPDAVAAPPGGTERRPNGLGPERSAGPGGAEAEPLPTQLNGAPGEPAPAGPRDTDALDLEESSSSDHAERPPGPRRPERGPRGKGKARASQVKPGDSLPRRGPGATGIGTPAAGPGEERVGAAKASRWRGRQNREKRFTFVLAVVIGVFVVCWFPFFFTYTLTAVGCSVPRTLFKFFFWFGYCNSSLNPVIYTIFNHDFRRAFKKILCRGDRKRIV
Effect on: ligand displacement
Tested at: 10 µM
| SMILES | inhibition |
| --- | --- |
| CC[C@H](CC(=O)O)n1c(=O)c2ncccc2n(Cc2cn(C)c3cc(C)cc(C)c23)c1=O | 19.6% |
| CN(C)CC#Cc1ccc(OCCCc2sc(N3CCc4cccc(C(=O)Nc5nc6ccccc6s5)c4C3)nc2C(=O)O)c(F)c1 | 7.32% |
| CNC(=N)NCCC[C@H](NC(=O)[C@H](CC(C)C)NC(=O)NNC(=O)[C@H](Cc1ccccc1)NC(=O)[C@H](CO)NC(=O)[C@H](CC(N)=O)NC(=O)[C@@H](Cc1ccncc1)NC(=O)[C@H](N)Cc1ccc(O)cc1)C(=O)N[C@@H](Cc1ccccc1)C(N)=O | 8.6% |
| CCC(F)(F)c1cc(N2CCC(S(C)(=O)=O)CC2)nc2sc(C(N)=O)c(N)c12 | -12.4% |
| CN(C)C(=O)c1sc2nc(N3CCC(S(C)(=O)=O)CC3)cc(C(F)(F)F)c2c1N | 13% |

Set 2
Species: human
Medium: microsomes or S9
Tested at: 2 µM
Time: 0.5 h
| Compound | remaining compound [%] |
| --- | --- |
| O=c1c(/C=N/Nc2nc3ccccc3s2)c(C(F)(F)F)[nH]n1-c1nc2ccccc2s1 | > 99 |
| Cc1ncsc1CCOC(=O)c1ccc(Cl)cc1 | 0.204 |
| Cc1cc(CNc2ccc(-c3nc(CCCc4ccccc4)no3)cn2)n[nH]1 | 92.6 |
| COc1ccc2nc(C3=CCCN(C)C3)n(C)c2c1 | 71.5 |

Set 3
Target: RNA binding protein fox-1 homolog 2, RRM domain, GST-SBP tag (RBFOX2, Homo sapiens, UniProt O43251-10, residues 100-194)
Technique: RNA Bind-n-Seq
Form: RNA
Medium: in vitro
Tested at: 365 nM
Setting: natural RNA segment, single round, ends assumed
Baseline: no-protein control
Reading: higher = stronger binding
| Sequence | RBNS enrichment (R) |
| --- | --- |
| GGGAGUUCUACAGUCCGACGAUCAAUUCAUGGUUCAAGUAUUAAGCAGUUCAUUCUACCAAGCUGUCACAGGUUUUCAGAGAAUUAUCUCAAGUAAAACAAAUGAAAUUUAAUUACAAACAAUAAGAACAAGUUGGAAUUCUCGGGUGCCAA | 0.402 |
| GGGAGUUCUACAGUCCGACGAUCGCCAAUCUGGCCCUUACACACUCAGGCCUGUGCCCACUCCCUAUCUCCUUCCCACCCCUACACACACACUCCCUGCUUGCAGGAGGCCAAACUGUCCCUCCCUUGCUGAAUGGAAUUCUCGGGUGCCAA | 0.678 |
| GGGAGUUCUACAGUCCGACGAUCUUUAAAUAAGGGGAAAUAGUAUCUUUAAAGUUAAUGUCUAGCCAAGAGUUUAGUAAACGAAGAAUUAAACUGCACUGUUGAUCGGUGCUUUGUGUAAAUACAUCUUUAACUGGAAUUCUCGGGUGCCAA | 0.802 |
| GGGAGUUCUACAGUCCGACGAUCCCACCUUGUGUUCAGAAAGCAAAAGUGAAGUGAUAGCCAAGCAUGGGCCACUAGAUGGAGUAUCCUGGGCCUUUGUAGCAUAGCUCUUCUCUGGAGCACCCUAUUUGCUUUGGAAUUCUCGGGUGCCAA | 0.769 |
| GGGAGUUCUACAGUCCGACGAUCCAUGUUUAUUUGCACCUGAUGCUCAGGAGCCAGAUGUGGACCCUGCAGAGCCAGGCUUGUACCACAGCUCAGAGGCGUCAAGUUUCCAAUUAAAGCCACUGGAGAAAACCUGGAAUUCUCGGGUGCCAA | 0.382 |
| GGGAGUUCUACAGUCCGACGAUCAUUUCAGGAGGACUUAAUGCUAUUUAUGUUGUGCCUCUGCAGGCAAAGCCCUUAAUAAAUAUUUUACAUCCUUUCUAAUGACAAUGAAUGGAAUUAAUCACUCAACAGGUUGGAAUUCUCGGGUGCCAA | 0.369 |
| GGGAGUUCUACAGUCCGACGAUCCUCCAAUUUUCUGUGCCAUUUUAAAUUUAACUUUGACAUCCAGCUAUAGACAGAAAUAAUAAGCCACCCUGGGUGUAAACUUGAUUUUCUUUAUUGAGAUGUAUCAUGUAUGGAAUUCUCGGGUGCCAA | 0.983 |
| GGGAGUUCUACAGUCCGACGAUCGCCCCCACCAAUGAGUUCUACGCGUGAAGCUUGCUUGUGGGCACUGGCUUGGACUUUAGCGGGGAGGGAAGCCAGGGGAUUUUGAAGGGUGGACAUUAGGGUAGGGUGAGUGGAAUUCUCGGGUGCCAA | 2.26 |

Single results of other studies
| Structure (SMILES) | test | system | setting | endpoint | value |
| --- | --- | --- | --- | --- | --- |
| CC(C)n1cnc(-c2ccc(F)cc2)c1-c1ncc(C(=O)Nc2ccc(N3CCN(C)CC3)cc2)[nH]1 | phase 2a clinical trial, measured: protein urine present | patients with idiopathic pulmonary fibrosis | dose not given, Grade 5, all drug arms total | patients with treatment-emergent adverse events | 0% |

Some of these lines once more (set 2):
| Compound | remaining compound [%] |
| --- | --- |
| Cc1cc(CNc2ccc(-c3nc(CCCc4ccccc4)no3)cn2)n[nH]1 | 92.6 |
| COc1ccc2nc(C3=CCCN(C)C3)n(C)c2c1 | 71.5 |
